Experimental data pooled from the literature.
A part holds a random share of what one study measured. Several values in a cell are separate wells, animals, samples, runs or records. Changes are numbered by the printed parent chain.
Chain of UniProt O14733 (whole entry, looked up): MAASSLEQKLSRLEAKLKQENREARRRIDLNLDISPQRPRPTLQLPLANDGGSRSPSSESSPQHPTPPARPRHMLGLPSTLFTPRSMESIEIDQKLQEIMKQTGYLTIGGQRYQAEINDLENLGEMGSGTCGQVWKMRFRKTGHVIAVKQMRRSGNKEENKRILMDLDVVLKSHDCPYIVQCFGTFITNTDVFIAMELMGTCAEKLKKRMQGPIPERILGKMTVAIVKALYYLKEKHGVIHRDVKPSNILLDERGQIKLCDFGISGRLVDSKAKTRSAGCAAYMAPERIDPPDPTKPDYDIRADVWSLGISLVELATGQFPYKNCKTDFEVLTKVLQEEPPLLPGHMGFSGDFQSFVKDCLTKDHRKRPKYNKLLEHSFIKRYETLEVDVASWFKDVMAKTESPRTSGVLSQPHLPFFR
Chain of UniProt P10721 (whole entry, unmodified, looked up): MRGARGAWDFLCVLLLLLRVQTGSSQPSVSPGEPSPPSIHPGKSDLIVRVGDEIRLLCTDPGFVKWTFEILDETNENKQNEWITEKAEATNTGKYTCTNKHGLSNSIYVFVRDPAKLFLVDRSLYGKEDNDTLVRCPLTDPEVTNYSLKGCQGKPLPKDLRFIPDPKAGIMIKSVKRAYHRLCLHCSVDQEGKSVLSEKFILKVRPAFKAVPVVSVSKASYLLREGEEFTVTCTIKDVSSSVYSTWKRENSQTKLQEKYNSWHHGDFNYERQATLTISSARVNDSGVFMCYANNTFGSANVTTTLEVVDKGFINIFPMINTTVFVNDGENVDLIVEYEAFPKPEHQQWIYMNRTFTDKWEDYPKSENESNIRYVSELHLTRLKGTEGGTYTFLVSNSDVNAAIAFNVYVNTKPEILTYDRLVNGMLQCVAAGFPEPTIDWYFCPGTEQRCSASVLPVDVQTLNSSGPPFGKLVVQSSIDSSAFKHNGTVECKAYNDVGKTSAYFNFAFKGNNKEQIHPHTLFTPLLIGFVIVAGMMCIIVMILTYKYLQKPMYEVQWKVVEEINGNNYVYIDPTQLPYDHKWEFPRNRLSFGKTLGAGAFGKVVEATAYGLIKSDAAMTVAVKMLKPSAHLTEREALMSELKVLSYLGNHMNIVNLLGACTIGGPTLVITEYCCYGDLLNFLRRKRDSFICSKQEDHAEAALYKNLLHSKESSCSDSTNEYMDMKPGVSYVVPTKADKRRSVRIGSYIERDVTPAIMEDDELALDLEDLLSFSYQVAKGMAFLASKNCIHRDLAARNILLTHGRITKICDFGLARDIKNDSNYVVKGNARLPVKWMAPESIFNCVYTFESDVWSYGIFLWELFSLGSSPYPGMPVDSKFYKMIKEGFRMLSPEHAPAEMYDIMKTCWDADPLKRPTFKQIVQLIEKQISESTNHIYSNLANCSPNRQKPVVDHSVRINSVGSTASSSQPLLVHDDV
Chain of UniProt P54756 (whole entry, looked up): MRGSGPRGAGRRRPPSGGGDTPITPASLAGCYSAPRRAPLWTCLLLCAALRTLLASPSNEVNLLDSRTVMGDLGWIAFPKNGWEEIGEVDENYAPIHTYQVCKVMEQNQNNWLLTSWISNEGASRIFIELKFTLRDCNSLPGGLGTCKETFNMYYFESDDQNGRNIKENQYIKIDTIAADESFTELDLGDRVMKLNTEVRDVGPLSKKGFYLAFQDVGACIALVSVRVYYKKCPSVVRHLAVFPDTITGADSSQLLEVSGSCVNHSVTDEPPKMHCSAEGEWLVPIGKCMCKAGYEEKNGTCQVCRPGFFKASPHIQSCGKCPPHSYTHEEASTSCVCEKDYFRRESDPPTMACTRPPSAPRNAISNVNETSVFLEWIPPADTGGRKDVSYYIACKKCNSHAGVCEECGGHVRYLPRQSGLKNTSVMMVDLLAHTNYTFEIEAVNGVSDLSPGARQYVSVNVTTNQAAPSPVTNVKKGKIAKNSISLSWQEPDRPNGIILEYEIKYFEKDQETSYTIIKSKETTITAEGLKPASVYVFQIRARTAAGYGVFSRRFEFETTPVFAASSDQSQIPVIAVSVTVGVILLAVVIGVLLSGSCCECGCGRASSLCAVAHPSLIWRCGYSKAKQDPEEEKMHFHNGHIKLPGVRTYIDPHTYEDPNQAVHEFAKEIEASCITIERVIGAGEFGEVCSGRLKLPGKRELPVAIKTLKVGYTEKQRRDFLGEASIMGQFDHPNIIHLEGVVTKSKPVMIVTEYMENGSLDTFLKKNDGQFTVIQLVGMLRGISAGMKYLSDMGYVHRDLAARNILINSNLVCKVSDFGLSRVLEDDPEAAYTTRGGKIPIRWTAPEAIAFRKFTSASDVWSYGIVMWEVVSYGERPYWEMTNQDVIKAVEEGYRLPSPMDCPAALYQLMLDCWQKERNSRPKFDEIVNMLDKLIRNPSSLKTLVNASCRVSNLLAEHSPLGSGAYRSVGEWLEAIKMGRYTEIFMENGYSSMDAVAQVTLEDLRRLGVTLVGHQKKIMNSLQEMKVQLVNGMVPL
Chain of UniProt P45985 (whole entry, looked up): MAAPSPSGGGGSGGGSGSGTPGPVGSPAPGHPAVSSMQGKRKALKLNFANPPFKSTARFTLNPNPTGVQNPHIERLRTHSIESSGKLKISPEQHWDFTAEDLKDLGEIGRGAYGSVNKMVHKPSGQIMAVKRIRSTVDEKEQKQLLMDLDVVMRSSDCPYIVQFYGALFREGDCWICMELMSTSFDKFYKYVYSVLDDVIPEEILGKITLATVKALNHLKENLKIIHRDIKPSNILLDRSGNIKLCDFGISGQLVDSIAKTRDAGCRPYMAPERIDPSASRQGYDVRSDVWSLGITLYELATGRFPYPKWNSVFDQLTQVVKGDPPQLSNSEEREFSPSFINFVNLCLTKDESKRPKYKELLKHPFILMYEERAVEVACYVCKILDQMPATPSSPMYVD
Chain of UniProt Q6P2M8 (whole entry, looked up): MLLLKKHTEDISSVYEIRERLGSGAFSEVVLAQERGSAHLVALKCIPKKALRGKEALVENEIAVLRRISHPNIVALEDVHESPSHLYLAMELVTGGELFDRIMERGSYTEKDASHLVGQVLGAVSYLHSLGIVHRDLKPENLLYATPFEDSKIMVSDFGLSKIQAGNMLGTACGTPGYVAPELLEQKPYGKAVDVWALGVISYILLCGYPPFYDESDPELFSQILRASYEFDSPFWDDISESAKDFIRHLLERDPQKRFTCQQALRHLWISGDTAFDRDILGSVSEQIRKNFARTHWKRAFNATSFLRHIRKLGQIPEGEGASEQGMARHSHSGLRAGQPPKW
Chain of UniProt P07947 (whole entry, looked up): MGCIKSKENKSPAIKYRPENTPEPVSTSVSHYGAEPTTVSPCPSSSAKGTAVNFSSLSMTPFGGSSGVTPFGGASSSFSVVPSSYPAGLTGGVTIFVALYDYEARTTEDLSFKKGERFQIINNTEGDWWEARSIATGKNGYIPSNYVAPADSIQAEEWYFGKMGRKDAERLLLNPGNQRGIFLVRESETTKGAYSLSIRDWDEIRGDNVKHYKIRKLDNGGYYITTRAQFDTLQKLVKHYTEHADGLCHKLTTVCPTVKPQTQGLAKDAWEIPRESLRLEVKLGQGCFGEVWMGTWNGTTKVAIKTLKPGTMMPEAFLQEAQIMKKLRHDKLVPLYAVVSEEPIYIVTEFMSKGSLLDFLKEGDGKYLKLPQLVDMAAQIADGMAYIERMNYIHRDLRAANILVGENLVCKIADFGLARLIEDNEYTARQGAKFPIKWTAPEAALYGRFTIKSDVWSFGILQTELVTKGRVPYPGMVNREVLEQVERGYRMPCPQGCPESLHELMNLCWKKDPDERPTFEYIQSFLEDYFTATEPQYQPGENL
Chain of UniProt Q96BR1 (whole entry, looked up): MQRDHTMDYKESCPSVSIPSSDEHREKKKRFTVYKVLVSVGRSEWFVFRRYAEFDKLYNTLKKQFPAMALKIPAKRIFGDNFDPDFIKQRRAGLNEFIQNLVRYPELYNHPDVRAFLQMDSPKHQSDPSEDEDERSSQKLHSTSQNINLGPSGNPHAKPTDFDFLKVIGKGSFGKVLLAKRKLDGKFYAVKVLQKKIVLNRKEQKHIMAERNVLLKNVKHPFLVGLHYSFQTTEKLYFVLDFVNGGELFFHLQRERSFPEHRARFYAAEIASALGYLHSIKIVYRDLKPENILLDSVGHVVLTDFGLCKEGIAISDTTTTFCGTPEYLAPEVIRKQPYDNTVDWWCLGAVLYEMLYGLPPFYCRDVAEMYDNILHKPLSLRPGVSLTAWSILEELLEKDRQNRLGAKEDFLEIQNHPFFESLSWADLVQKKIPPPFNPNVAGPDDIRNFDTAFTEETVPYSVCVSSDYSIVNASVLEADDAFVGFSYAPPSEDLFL
Chain of UniProt P23443 (whole entry, looked up): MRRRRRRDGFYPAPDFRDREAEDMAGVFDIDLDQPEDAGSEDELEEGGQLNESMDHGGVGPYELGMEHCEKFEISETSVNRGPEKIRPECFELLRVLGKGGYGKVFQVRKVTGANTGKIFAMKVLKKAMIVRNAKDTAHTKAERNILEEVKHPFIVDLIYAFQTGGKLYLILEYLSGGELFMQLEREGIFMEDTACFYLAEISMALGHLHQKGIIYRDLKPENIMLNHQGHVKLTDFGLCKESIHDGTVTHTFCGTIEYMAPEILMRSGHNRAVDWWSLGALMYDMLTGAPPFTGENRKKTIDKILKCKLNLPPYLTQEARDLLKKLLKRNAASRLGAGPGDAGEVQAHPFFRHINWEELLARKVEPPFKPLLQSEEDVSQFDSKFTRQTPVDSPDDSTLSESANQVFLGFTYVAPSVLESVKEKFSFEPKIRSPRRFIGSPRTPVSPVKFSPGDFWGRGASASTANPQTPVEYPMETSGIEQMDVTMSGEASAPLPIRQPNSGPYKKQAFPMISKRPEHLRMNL

Study 1
Compound: Cc1sc(C(=O)NC2COC2)cc1-n1cc(NC(=O)Nc2c(F)cccc2Cl)cn1
Effect on: enzyme activity
Concentration: 10 µM
Relative to: untreated control
| target | remaining activity [%] |
| --- | --- |
| Ribosomal protein S6 kinase beta-1 (RPS6KB1, Homo sapiens, UniProt P23443) | 91.1 |
| Dual specificity mitogen-activated protein kinase kinase 4 (MAP2K4, Homo sapiens, UniProt P45985) | 93 |
| Leucine-rich repeat serine/threonine-protein kinase 2 (LRRK2, Homo sapiens, UniProt Q5S007) | 101 |
| Calcium/calmodulin-dependent protein kinase type 1B (PNCK, Homo sapiens, UniProt Q6P2M8) | 80.1 |
| Ephrin type-A receptor 3 (EPHA3, Homo sapiens, UniProt P29320) | 105 |
| Myosin light chain kinase, smooth muscle (MYLK, Homo sapiens, UniProt Q15746) | 102 |
| Vascular endothelial growth factor receptor 3 (FLT4, Homo sapiens, UniProt P35916) | 81.9 |
| Ephrin type-A receptor 5 (EPHA5, Homo sapiens, UniProt P54756) | 103 |

Study 2
SMILES: O=C(NC[C@@H]1[C@H]2CN(C(=O)OCc3cc(C(F)(F)F)cc(C(F)(F)F)c3)C[C@@H]12)c1ccc2[nH]nnc2c1
Effect on: cell-free assay
Method: competition with immobilised ligand
Concentration: 1 µM
| target | remaining binding [%] |
| --- | --- |
| Dual specificity mitogen-activated protein kinase kinase 7 (MAP2K7, Homo sapiens, UniProt O14733) | 95 |
| Mast/stem cell growth factor receptor Kit (KIT, Homo sapiens, UniProt P10721, L576P) | 92 |
| Serine/threonine-protein kinase Sgk3 (SGK3, Homo sapiens, UniProt Q96BR1) | 84 |
| Uncharacterized serine/threonine-protein kinase SBK3 (SBK3, Homo sapiens, UniProt P0C264) | 100 |
| Epidermal growth factor receptor (EGFR, Homo sapiens, UniProt P00533, del752-759) | 100 |
| Tyrosine-protein kinase Yes (YES1, Homo sapiens, UniProt P07947) | 100 |
| Serine/threonine-protein kinase Nek11 (NEK11, Homo sapiens, UniProt Q8NG66) | 100 |
| Ribosomal protein S6 kinase alpha-4, C-terminal kinase domain (RPS6KA4, Homo sapiens, UniProt O75676) | 86 |

Further values, each from its own experiment
P1: viral docking peptide; KKAKRRLFTISDS; partner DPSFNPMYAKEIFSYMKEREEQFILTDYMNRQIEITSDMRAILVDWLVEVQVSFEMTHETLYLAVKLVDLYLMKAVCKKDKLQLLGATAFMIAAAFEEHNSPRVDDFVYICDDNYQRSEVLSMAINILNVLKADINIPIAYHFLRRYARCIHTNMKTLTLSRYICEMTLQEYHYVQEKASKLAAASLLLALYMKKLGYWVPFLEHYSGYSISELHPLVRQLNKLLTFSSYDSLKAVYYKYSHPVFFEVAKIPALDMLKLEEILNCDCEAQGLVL
| Molecule | target or system | assay | test system | setting | scale | quantity | result |
| --- | --- | --- | --- | --- | --- | --- | --- |
| CC[C@@H](C)c1nc2cc(Nc3ccnc4ccc(S(=O)(=O)C(C)C)cc34)ccc2s1.Cl | L929 | CCK-8 |  | 25 µM, with: zVAD |  | viability | 79.4% and 80.2% and 84.6% and 80.7% |
| P1 S11A | CCNB3, cyclin fold, Cln2 fusion (human) | yeast growth competition, sequencing | yeast | strong parent motif | relative to: not given, higher = stronger binding | normalised enrichment score | 0.324 |

For quick reference, copied from above (study 1):
| target | remaining activity [%] |
| --- | --- |
| Ribosomal protein S6 kinase beta-1 (RPS6KB1, Homo sapiens, UniProt P23443) | 91.1 |
| Dual specificity mitogen-activated protein kinase kinase 4 (MAP2K4, Homo sapiens, UniProt P45985) | 93 |
| Leucine-rich repeat serine/threonine-protein kinase 2 (LRRK2, Homo sapiens, UniProt Q5S007) | 101 |
